{"data": "Experimental data of several laboratories", "cell line": "BT-549", "note": "Compare with care: the assays were run in different laboratories."}
{"SMILES": "CC/C=C\\C/C=C\\C/C=C\\C/C=C\\C/C=C\\C/C=C\\CCC(=O)Nc1ccn(C2OC(CO)C(O)C2(F)F)c(=O)n1 (stereo not shown)", "observed": "cell growth or viability", "technique": "SRB", "endpoint": "GI50", "value": "45.4 nM"}
{"SMILES": "CCCCCCCCCCCCCCCCC1CC(=O)NCCCN(C)CCCCN(C)CCCN1C (stereo not shown)", "observed": "cell growth or viability", "technique": "neutral red", "time": "48 h", "endpoint": "IC50", "value": "2 µg/mL"}
{"SMILES": "O=C1Nc2ccccc2/C1=N\\Nc1nnc2n1N=C(c1ccc(Cl)cc1)CS2", "observed": "cell growth or viability", "technique": "SRB", "tested at": "10 µM", "endpoint": "inhibition", "value": "29%"}
{"SMILES": "CCCCCCCCC/C=C/C=C/C(=O)N[C@H](C(=O)N[C@H]1C[C@@H](O)CCNC(=O)/C=C/[C@H](C)NC1=O)[C@@H](C)O", "technique": "trypan blue cell counting", "time": "2 days", "endpoint": "antiproliferative concentration", "value": "0.25 µM"}
{"SMILES": "CCNS(=O)(=O)c1ccc(COc2ccc3nc4ccc(=O)cc-4oc3c2)cc1", "technique": "Matrigel Transwell", "tested at": "1 µM", "time": "48 h", "endpoint": "cell invasion", "value": "inhibited"}
{"SMILES": "Cc1cc([C@H](C(=O)N2C[C@H](O)C[C@H]2C(=O)N[C@@H](CC(=O)N2CCC(N3CCC(C#Cc4ccc(C(=O)N[C@H]5C(C)(C)[C@H](Oc6ccc(C#N)c(Cl)c6)C5(C)C)cc4)CC3)CC2)c2ccc(-c3scnc3C)cc2)C(C)C)on1", "observed": "cell growth or viability", "time": "7 days", "endpoint": "IC50", "value": "147 nM"}
{"SMILES": "CC(=C(c1ccc(O)cc1)c1ccc(Cl)cc1)c1ccc(Cl)cc1", "observed": "cell growth or viability", "technique": "SRB", "endpoint": "GI50", "value": "500 nM"}
{"SMILES": "CC(=O)OC[C@H]1O[C@@H](Sc2sc(C(=O)c3ccc(Br)cc3)c(N)c2-c2nc3ccccc3s2)[C@H](OC(C)=O)[C@@H](OC(C)=O)[C@H]1OC(C)=O", "technique": "SRB", "tested at": "10 µM", "time": "48 h", "baseline": "untreated", "endpoint": "growth", "value": "90.2%"}
{"SMILES": "CC(Cc1ccc(Cl)cc1)=C(c1ccc(Cl)cc1)c1ccc(OCCN(C)C)cc1", "observed": "cell growth or viability", "technique": "SRB", "endpoint": "GI50", "value": "4950 nM"}
{"SMILES": "CC(=O)OC[C@H]1O[C@@H](Sc2sc(C(=O)c3ccc(C)cc3)c(N)c2-c2nc3ccccc3s2)[C@H](OC(C)=O)[C@@H](OC(C)=O)[C@@H]1OC(C)=O", "technique": "SRB", "tested at": "10 µM", "time": "48 h", "baseline": "untreated", "endpoint": "growth", "value": "69.7%"}
{"note": "Repeated from above:"}
{"SMILES": "O=C1Nc2ccccc2/C1=N\\Nc1nnc2n1N=C(c1ccc(Cl)cc1)CS2", "observed": "cell growth or viability", "technique": "SRB", "tested at": "10 µM", "endpoint": "inhibition", "value": "29%"}
